Experimental data collected from several papers.
Lines come from different studies, so protocols differ. Numbers after ± are the reported error.
UniProt P10635, sequence (whole entry, looked up): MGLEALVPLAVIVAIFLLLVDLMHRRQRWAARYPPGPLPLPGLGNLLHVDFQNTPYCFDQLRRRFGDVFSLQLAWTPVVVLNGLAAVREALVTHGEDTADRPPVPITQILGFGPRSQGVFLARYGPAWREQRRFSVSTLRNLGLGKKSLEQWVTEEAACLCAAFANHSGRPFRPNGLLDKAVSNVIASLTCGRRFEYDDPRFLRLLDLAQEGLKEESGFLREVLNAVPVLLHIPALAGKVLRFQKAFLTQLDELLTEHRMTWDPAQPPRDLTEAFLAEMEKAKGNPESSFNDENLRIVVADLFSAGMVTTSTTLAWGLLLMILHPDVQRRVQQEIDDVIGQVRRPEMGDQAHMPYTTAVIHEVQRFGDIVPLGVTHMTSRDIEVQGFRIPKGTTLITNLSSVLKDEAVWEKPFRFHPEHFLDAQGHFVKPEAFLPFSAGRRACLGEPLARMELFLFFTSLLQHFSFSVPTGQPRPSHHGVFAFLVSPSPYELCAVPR
UniProt P16152, sequence (whole entry, looked up): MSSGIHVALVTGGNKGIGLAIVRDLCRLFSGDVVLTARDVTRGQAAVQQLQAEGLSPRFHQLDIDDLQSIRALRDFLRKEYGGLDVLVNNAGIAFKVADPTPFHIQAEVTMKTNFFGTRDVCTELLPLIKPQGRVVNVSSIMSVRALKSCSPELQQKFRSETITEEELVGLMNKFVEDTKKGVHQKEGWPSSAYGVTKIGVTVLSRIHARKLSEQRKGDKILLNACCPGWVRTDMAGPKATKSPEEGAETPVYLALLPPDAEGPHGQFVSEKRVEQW

Compound | tested on | test | test system | setting | how to read | endpoint | result
CO[C@H]1C[C@@H]2CC[C@@H](C)[C@@](O)(O2)C(=O)C(=O)N2CCCC[C@H]2C(=O)O[C@H]([C@H](C)C[C@@H]2CC[C@@H](OC(=O)NCCOCCOCCOCCOCCOCCOCCOCCOCCC(=O)N3CCc4cc(Cn5nc(-c6ccc7oc(N)nc7c6)c6c(N)ncnc65)ccc4C3)[C@H](OC)C2)C[C@@H](O)[C@H](C)/C=C(\C)[C@@H](O)[C@@H](OC)C(=O)[C@H](C)C[C@H](C)/C=C/C=C/C=C/1C | – | – | patients with advanced solid tumours | intravenous, 8 mg weekly, grade 3 or higher | – | constipation incidence | 0%
O=[N+]([O-])c1ccc(N2CCN(CCC(O)c3ccc(F)cc3)CC2)c(C(F)(F)F)c1 (stereo not drawn) | Salmonella typhimurium | SOS/umu test | TA1535/pSK1002 | 0.016 mg/mL, 4 h, with S9, lower range | – | survival | 105%
CN1CC[C@@H](c2c(O)cc(O)c3c(=O)cc(-c4ccc(C(F)(F)F)cc4Cl)oc23)[C@@H]1CO | – | measured: Hypoalbuminemia | relapsed AML | oral, 100 mg, grade 3-4, intermittent dosing | – | patients with adverse event | 0%
CC[C@@H](C)[C@@H](NC(=O)[C@@H](C)NC(=O)[C@@H](CCCNC(=N)N)NC(=O)[C@@H](CCCNC(=N)N)NC(=O)[C@@H](CCCNC(=N)N)NC(=O)[C@@H](CCCNC(=N)N)NC(=O)[C@@H](CCCNC(=N)N)NC(=O)[C@H](N)CCCNC(=N)N)C(=O)N[C@H](CO)C(=O)NCC(=O)N[C@H](CO)C(=O)N[C@H](CC(C)C)C(=O)N[C@@H](C(=O)N[C@@H](C(=O)N[C@H](CC(C)C)C(=O)N[C@H](Cc1ccccc1)C(=O)NCC(=O)N[C@H](Cc1ccc(O)cc1)C(N)=O)[C@H](C)O)C(C)C | human erythrocytes | – | – | 400 µM, 1 h | relative to: Triton X-100 | hemolysis | 33%
C[C@H]1CN(c2n[nH]c3nc(N[C@H]4CC[C@H](NS(=O)(=O)CCC(F)(F)F)CC4)ncc23)CCO1 | CBR1 (Homo sapiens, UniProt P16152) | inhibitor, Kinobeads competition profiling | – | 0.8 µM | relative to: vehicle | relative abundance | 1
CNC1(c2ccccc2Cl)CCCCC1=O (racemic) | P2X receptor | radioligand binding, agonist, radioligand displacement | – | 30 µM | – | inhibition | -6%
CNC(C)Cc1ccc2c(c1)OCO2 (stereo not drawn) | Cytochrome P450 2D6 (CYP2D6, Homo sapiens, UniProt P10635) | enzyme activity | – | 300 µM, preincubation with NADPH, added: dextromethorphan O-demethylation | – | remaining activity | 28.9%
CC[C@H](C)[C@H](NC(=O)[C@H](CC(C)C)NC(=O)[C@H](CC(C)C)NC(=O)[C@H](CC(C)C)NC(=O)[C@@H](NC(=O)[C@@H](NC(=O)[C@H](CCCCN)NC(=O)[C@H](CCCCN)NC(=O)[C@H](CCCCN)NC(=O)[C@H](CCCCN)NC(=O)[C@H](CC(C)C)NC(=O)[C@H](CCCNC(=N)N)NC(=O)[C@H](CO)NC(=O)[C@@H](N)CO)[C@@H](C)CC)C(C)C)C(=O)N[C@@H](CO)C(=O)N[C@@H](CCCCN)C(=O)N[C@@H](CCCCN)C(=O)N[C@@H](CCCCN)C(=O)N[C@@H](CCCCN)C(N)=O | human erythrocytes | – | – | 400 µM, 1 h | relative to: Triton X-100 | hemolysis | 16%
COc1cc2c(Oc3ccc4[nH]c(C)cc4c3F)ccnc2cc1OCC1(N)CC1 | – | – | paediatric recurrent refractory sarcoma | 10 mg | – | grade 3 Neutropenia | 0%
CC(C)[C@@H]1NC(=O)[C@H](Cc2ccccc2)NC(=O)[C@@H]2NC(=O)[C@H](Cc3ccccc3)NC(=O)[C@@H]3CCCN3C(=O)CNC(=O)[C@H](Cc3ccccc3)NC(=O)[C@@H]3CNCCCC[C@@H](C(=O)O)NC(=O)[C@@H]4NC(=O)[C@H](CC(N)=O)NC(=O)CNC(=O)[C@H]([C@@H](O)C(=O)O)NC(=O)[C@H](CSC[C@@H](NC(=O)[C@H](CCC(N)=O)NC(=O)[C@H](CCCCNC(=O)c5ccc(NN)nc5)NC(=O)[C@@H](N)CS[C@H]4C)C(=O)N[C@@H](CS[C@H]2C)C(=O)N3)NC1=O [technetium-99m labelled] | – | – | rat, saline control, skin | intravenous, 2 h after tracer, tracer 2 h after reperfusion | – | tissue uptake | 0.39 ± 0.27 %ID/g
C[C@@H](O)[C@@H](CO)NC(=O)[C@@H](CCCNC(=N)N)NC(=O)[C@@H]1CCCN1C(=O)[C@@H]1CSSC[C@H](NC(=O)[C@H](Cc2ccccc2)NC(=O)CN2CCN(CC(=O)O)CCN(CC(=O)O)CCN(CC(=O)O)CC2)C(=O)N[C@@H](Cc2ccc(O)cc2)C(=O)N[C@@H](Cc2ccccc2)C(=O)N[C@@H](CCC(N)=O)C(=O)N[C@@H](CC(N)=O)C(=O)N1 [gallium-68 labelled] | – | – | Wistar rat, heart | intravenous, 8 MBq, 60 min, group mean | – | tissue uptake | 0.24 %ID/g
Cc1cc(C(=O)NC(C)(C)COc2cccc3c2C(N)=NS(=O)(=O)N3)cc(C)n1 | Salmonella typhimurium | Ames test, confirmatory | TA98 | 3333 µg/plate | relative to: solvent control | revertant ratio | 0.8

Some of these lines once more:
Compound | tested on | test | test system | setting | how to read | endpoint | result
C[C@H]1CN(c2n[nH]c3nc(N[C@H]4CC[C@H](NS(=O)(=O)CCC(F)(F)F)CC4)ncc23)CCO1 | CBR1 (Homo sapiens, UniProt P16152) | inhibitor, Kinobeads competition profiling | – | 0.8 µM | relative to: vehicle | relative abundance | 1
